Measurements pooled from the literature.
Every numbered part comes from another study and shows a few of its results, in no order.
UniProt Q9Y6M4, sequence (whole entry, looked up): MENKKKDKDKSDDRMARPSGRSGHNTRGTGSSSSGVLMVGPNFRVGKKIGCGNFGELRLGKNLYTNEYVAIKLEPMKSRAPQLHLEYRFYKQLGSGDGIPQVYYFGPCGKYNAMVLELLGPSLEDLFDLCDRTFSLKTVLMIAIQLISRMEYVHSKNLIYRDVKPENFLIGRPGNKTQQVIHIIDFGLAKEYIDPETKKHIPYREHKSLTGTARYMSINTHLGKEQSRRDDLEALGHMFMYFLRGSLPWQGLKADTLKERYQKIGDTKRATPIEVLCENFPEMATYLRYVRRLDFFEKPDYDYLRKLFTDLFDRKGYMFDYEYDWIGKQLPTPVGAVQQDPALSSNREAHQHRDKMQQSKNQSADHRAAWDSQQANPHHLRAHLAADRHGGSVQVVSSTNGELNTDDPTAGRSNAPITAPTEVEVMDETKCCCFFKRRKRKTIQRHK
UniProt Q9UL54, sequence (whole entry, looked up): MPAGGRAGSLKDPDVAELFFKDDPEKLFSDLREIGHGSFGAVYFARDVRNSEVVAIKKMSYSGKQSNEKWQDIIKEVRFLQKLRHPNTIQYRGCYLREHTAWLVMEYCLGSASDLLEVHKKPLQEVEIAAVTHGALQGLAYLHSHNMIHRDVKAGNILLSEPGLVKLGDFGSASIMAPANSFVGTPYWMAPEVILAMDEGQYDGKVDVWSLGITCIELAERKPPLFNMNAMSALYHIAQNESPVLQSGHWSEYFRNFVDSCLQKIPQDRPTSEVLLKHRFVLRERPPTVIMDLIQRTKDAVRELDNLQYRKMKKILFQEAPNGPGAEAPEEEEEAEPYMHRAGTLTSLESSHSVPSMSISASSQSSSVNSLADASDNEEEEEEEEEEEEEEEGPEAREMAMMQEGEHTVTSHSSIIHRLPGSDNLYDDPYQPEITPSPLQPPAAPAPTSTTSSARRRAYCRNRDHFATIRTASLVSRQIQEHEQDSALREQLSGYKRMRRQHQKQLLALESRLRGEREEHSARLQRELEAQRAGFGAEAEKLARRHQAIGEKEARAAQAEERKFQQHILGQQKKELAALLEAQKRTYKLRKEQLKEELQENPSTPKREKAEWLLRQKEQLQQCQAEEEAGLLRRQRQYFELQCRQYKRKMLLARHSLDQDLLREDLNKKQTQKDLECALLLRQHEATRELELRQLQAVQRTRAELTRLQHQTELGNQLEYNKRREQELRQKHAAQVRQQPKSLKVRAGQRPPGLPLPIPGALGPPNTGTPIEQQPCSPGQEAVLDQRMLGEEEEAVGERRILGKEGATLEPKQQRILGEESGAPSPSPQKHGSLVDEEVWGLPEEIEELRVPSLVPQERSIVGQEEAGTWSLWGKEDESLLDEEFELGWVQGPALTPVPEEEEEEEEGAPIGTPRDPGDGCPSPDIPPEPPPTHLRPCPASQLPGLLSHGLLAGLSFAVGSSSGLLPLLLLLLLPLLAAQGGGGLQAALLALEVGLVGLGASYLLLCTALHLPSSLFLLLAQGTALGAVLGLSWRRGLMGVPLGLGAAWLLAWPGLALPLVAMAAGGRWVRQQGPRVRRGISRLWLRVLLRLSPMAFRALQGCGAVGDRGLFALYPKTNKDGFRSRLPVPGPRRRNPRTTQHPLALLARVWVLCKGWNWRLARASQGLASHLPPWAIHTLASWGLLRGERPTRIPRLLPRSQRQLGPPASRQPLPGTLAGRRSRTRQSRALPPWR
UniProt P42685, sequence (whole entry, looked up): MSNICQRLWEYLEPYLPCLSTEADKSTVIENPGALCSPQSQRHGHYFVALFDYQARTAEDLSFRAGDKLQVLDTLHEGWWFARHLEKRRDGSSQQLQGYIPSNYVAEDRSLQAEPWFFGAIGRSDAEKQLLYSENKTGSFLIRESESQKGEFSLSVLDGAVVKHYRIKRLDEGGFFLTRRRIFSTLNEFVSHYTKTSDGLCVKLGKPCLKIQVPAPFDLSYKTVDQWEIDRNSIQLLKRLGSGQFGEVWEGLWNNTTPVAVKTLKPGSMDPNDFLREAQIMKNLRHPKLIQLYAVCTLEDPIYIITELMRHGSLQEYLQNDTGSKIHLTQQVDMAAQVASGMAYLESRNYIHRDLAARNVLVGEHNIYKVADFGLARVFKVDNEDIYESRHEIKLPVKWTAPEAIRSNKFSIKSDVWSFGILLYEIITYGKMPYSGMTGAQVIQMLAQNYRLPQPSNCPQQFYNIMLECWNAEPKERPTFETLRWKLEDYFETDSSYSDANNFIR
UniProt P27361, sequence (whole entry, looked up): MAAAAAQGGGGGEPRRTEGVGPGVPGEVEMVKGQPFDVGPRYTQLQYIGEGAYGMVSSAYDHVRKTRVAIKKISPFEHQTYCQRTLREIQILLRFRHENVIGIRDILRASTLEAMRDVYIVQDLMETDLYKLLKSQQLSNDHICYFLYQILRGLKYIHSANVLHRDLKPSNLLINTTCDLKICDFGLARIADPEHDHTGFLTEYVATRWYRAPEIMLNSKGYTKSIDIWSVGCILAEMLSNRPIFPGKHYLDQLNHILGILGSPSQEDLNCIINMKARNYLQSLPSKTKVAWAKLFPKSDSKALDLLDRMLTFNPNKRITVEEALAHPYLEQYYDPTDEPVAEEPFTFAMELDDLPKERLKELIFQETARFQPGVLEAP
UniProt P25021, sequence (whole entry, looked up): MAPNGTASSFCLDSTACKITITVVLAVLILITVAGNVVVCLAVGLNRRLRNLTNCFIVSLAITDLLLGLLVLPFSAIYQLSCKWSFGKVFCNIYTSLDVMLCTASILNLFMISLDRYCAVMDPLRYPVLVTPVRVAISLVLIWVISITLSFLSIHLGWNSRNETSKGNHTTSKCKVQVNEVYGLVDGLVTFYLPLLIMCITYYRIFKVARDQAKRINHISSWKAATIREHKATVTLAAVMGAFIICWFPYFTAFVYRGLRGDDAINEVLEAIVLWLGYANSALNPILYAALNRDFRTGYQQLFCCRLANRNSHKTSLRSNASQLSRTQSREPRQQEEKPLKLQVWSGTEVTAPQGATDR
UniProt Q96PY6, sequence (whole entry, looked up): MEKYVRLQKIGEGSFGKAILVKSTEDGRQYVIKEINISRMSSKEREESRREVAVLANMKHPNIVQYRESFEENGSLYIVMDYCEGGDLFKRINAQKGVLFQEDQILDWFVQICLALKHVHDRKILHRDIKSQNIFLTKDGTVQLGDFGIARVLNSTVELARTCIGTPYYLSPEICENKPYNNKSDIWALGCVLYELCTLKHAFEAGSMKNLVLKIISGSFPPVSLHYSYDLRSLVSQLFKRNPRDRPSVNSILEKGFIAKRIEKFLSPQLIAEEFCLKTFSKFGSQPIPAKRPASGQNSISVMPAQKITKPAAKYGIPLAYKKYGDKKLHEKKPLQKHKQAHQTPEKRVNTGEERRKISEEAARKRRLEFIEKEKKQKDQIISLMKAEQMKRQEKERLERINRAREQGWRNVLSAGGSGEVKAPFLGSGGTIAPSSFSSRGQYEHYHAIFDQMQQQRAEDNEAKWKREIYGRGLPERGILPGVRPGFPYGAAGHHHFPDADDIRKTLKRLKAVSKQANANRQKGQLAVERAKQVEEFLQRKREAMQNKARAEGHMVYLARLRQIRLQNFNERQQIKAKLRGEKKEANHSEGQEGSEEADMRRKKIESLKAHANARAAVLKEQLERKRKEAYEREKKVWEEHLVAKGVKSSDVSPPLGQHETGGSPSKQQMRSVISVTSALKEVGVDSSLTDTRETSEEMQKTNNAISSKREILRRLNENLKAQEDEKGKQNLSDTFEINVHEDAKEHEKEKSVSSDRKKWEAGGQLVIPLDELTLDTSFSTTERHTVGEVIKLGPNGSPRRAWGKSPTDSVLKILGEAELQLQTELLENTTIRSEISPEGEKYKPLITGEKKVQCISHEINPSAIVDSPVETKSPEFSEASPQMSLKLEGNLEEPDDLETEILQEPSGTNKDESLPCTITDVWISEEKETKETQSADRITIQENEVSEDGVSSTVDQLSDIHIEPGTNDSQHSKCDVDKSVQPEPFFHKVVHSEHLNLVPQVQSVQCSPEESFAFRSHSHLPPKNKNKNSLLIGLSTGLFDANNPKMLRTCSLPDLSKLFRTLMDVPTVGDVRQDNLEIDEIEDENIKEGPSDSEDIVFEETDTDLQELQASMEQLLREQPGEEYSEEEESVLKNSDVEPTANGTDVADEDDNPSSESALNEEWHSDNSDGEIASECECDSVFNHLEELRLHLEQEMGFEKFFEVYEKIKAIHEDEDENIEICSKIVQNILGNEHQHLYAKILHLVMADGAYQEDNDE
UniProt P06239, sequence (whole entry, looked up): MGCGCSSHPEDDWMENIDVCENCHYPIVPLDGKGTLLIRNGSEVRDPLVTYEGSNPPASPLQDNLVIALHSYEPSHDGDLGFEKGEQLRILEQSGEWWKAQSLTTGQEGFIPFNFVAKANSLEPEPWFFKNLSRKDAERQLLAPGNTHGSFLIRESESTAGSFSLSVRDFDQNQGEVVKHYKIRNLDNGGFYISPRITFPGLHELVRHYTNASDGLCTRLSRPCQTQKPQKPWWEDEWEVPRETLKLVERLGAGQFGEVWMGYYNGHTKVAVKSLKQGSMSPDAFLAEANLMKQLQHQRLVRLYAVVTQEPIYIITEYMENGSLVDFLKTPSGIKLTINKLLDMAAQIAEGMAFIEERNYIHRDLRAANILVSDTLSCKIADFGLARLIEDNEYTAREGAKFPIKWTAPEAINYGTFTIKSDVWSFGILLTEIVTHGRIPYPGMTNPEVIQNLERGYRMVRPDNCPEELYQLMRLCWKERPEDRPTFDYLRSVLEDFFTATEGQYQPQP
UniProt Q9ZSY8, sequence (whole entry, looked up): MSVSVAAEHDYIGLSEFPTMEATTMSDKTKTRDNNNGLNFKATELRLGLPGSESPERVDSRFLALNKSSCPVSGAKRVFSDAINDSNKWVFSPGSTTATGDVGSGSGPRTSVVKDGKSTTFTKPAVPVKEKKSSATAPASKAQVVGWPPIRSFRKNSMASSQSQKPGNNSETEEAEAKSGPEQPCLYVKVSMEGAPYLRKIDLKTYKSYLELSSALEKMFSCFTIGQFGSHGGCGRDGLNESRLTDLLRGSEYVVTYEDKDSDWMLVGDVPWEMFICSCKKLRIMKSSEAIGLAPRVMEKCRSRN

Sample 1
Molecule: B1 (IAA8)
Method: two-hybrid
Relative to: out of 4 tests
Direction: higher = firmer interaction
B1: IAA8 (Arabidopsis thaliana, UniProt Q38826); chain MSYRLLSVDKDELVTSPCLKERNYLGLSDCSSVDSSTIPNVVGKSNLNFKATELRLGLPESQSPERETDFGLLSPRTPDEKLLFPLLPSKDNGSATTGHKNVVSGNKRGFADTWDEFSGVKGSVRPGGGINMMLSPKVKDVSKSIQEERSHAKGGLNNAPAAKAQVVGWPPIRSYRKNTMASSTSKNTDEVDGKPGLGVLFVKVSMDGAPYLRKVDLRTYTSYQQLSSALEKMFSCFTLGQCGLHGAQGRERMSEIKLKDLLHGSEFVLTYEDKDGDWMLVGDVPWEIFTETCQKLKIMKGSDSIGLAPGAVEKSKNKERV
For ARF22 498-598 (Arabidopsis thaliana, UniProt Q9C8N7): positive tests read 1.
The positive tests was 4 (IAA27 (Arabidopsis thaliana, UniProt Q9ZSY8)).
The positive tests was 2 (IAA20 (Arabidopsis thaliana, UniProt O24410); weak activation fusion).

Sample 2
SMILES: CS(=O)(=O)c1cc(C2(NC(=O)c3cncc4c3cnn4-c3ccc(F)cc3)CC2)ccn1
Read-out: cell-free assay
Concentration: 10 µM
For Muscarinic acetylcholine receptor M5 (CHRM5, Homo sapiens, UniProt P08912): inhibition read 3.92%.
The inhibition was 3.34% (Histamine H2 receptor (HRH2, Homo sapiens, UniProt P25021)).
It gave 13.2% for inhibition (Alpha-2B adrenergic receptor (ADRA2B, Homo sapiens, UniProt P18089)).
For D(4) dopamine receptor (DRD4, Homo sapiens, UniProt P21917): inhibition read -1.14%.
For Histamine H4 receptor (HRH4, Homo sapiens, UniProt Q9H3N8): inhibition read 1.36%.

Sample 3
Target: Interferon regulatory factor 5, full length, phosphomimetic (IRF5, Homo sapiens, UniProt Q13568-2, residues 1-514, K96S/S451D/S453D/S456D/S462D)
Method: protein-binding microarray
Form: double-stranded DNA, one strand shown
Matrix: in vitro
Concentration: 250 nM
Notes: 60-bp whole probe
With: salmon DNA 0.4 mg/ml
Relative to: random background probes
Direction: higher = stronger binding
Shared flanks, not repeated: GCCTAGCAC … GTCTTGATTCGCTTGACGCTGCTG
For `TTAGATCTCGGTCTCGGTTAGTGCTAG`, the log fluorescence was 0.724 z-score.
The log fluorescence of `TTAGGTCTCCTTATCCTTTTGTGCTAG` is reported as 0.109 z-score.
For `GGGTTTTTTAGGCAGACAGCGTGCTAG`, the log fluorescence was -0.135 z-score.
`TCAAGCCTCTGCATTCCCACTGTGCTA` gave a log fluorescence of -0.328 z-score.
`TTAGGTATCCATCTCCTTTAGTGCTAG` gave a log fluorescence of 0.183 z-score.
`TTAGCTATCGGTTTCGGTTAGTGCTAG` gave a log fluorescence of 11.3 z-score.
For `TGGGAAATTCCTCTGAGGCAGTGCTAG`, the log fluorescence was -0.354 z-score.
For `GACGATTTCAGTCTCGAGCCGTGCTAG`, the log fluorescence was 1.23 z-score.

Sample 4
SMILES: CNc1cc2c(Nc3cccc(Br)c3)ncnc2cn1
Read-out: enzyme activity
Action: inhibitor
Concentration: 0.5 µM
Relative to: control
It gave 94.5% for remaining activity (Serine/threonine-protein kinase TBK1 (TBK1, Homo sapiens, UniProt Q9UHD2)).
The remaining activity was 91.2% (Tyrosine-protein kinase FRK (FRK, Homo sapiens, UniProt P42685)).
For Rhodopsin kinase GRK7 (GRK7, Homo sapiens, UniProt Q8WTQ7): remaining activity read 83.8%.
It gave 84.8% for remaining activity (Tyrosine-protein kinase ABL2 (ABL2, Homo sapiens, UniProt P42684)).
The remaining activity was 97.3% (Mitogen-activated protein kinase 3 (MAPK3, Homo sapiens, UniProt P27361)).
For Serine/threonine-protein kinase Nek1 (NEK1, Homo sapiens, UniProt Q96PY6): remaining activity read 70.3%.
The remaining activity was 87.9% (Angiopoietin-1 receptor (TEK, Homo sapiens, UniProt Q02763)).
Tyrosine-protein kinase Lck (LCK, Homo sapiens, UniProt P06239) — remaining activity: 96.7%.
The remaining activity was 73.9% (Macrophage-stimulating protein receptor (MST1R, Homo sapiens, UniProt Q04912)).
It gave 86.3% for remaining activity (Casein kinase I isoform gamma-3 (CSNK1G3, Homo sapiens, UniProt Q9Y6M4)).
Serine/threonine-protein kinase TAO2 (TAOK2, Homo sapiens, UniProt Q9UL54) — remaining activity: 95.3%.
The remaining activity was 87.5% (Tyrosine-protein kinase Mer (MERTK, Homo sapiens, UniProt Q12866)).
The remaining activity was 83.5% (Ribosomal protein S6 kinase alpha-2 (RPS6KA2, Homo sapiens, UniProt Q15349)).
Fibroblast growth factor receptor 1 (FGFR1, Homo sapiens, UniProt P11362) — remaining activity: 96.5%.

Excerpt of the above (sample 4):
The remaining activity was 83.5% (Ribosomal protein S6 kinase alpha-2 (RPS6KA2, Homo sapiens, UniProt Q15349)).
It gave 94.5% for remaining activity (Serine/threonine-protein kinase TBK1 (TBK1, Homo sapiens, UniProt Q9UHD2)).
The remaining activity was 91.2% (Tyrosine-protein kinase FRK (FRK, Homo sapiens, UniProt P42685)).
Tyrosine-protein kinase Lck (LCK, Homo sapiens, UniProt P06239) — remaining activity: 96.7%.
Serine/threonine-protein kinase TAO2 (TAOK2, Homo sapiens, UniProt Q9UL54) — remaining activity: 95.3%.
